Earlier results as cited in several papers.
Numbers after ± are the reported error.
CNR2: Cannabinoid receptor 2 (CNR2, Homo sapiens, UniProt P34972)
UniProt P34972, sequence (whole entry, looked up): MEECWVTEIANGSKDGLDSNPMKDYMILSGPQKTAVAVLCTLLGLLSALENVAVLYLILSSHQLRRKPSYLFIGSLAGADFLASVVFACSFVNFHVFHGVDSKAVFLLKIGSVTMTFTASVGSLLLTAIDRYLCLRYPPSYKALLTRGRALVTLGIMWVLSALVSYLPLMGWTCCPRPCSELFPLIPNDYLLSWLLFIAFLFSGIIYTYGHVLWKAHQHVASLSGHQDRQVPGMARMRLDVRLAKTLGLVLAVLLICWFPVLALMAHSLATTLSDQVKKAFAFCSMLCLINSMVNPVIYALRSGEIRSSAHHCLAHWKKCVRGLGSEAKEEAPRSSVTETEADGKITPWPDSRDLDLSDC
UniProt P27732, sequence (whole entry, looked up): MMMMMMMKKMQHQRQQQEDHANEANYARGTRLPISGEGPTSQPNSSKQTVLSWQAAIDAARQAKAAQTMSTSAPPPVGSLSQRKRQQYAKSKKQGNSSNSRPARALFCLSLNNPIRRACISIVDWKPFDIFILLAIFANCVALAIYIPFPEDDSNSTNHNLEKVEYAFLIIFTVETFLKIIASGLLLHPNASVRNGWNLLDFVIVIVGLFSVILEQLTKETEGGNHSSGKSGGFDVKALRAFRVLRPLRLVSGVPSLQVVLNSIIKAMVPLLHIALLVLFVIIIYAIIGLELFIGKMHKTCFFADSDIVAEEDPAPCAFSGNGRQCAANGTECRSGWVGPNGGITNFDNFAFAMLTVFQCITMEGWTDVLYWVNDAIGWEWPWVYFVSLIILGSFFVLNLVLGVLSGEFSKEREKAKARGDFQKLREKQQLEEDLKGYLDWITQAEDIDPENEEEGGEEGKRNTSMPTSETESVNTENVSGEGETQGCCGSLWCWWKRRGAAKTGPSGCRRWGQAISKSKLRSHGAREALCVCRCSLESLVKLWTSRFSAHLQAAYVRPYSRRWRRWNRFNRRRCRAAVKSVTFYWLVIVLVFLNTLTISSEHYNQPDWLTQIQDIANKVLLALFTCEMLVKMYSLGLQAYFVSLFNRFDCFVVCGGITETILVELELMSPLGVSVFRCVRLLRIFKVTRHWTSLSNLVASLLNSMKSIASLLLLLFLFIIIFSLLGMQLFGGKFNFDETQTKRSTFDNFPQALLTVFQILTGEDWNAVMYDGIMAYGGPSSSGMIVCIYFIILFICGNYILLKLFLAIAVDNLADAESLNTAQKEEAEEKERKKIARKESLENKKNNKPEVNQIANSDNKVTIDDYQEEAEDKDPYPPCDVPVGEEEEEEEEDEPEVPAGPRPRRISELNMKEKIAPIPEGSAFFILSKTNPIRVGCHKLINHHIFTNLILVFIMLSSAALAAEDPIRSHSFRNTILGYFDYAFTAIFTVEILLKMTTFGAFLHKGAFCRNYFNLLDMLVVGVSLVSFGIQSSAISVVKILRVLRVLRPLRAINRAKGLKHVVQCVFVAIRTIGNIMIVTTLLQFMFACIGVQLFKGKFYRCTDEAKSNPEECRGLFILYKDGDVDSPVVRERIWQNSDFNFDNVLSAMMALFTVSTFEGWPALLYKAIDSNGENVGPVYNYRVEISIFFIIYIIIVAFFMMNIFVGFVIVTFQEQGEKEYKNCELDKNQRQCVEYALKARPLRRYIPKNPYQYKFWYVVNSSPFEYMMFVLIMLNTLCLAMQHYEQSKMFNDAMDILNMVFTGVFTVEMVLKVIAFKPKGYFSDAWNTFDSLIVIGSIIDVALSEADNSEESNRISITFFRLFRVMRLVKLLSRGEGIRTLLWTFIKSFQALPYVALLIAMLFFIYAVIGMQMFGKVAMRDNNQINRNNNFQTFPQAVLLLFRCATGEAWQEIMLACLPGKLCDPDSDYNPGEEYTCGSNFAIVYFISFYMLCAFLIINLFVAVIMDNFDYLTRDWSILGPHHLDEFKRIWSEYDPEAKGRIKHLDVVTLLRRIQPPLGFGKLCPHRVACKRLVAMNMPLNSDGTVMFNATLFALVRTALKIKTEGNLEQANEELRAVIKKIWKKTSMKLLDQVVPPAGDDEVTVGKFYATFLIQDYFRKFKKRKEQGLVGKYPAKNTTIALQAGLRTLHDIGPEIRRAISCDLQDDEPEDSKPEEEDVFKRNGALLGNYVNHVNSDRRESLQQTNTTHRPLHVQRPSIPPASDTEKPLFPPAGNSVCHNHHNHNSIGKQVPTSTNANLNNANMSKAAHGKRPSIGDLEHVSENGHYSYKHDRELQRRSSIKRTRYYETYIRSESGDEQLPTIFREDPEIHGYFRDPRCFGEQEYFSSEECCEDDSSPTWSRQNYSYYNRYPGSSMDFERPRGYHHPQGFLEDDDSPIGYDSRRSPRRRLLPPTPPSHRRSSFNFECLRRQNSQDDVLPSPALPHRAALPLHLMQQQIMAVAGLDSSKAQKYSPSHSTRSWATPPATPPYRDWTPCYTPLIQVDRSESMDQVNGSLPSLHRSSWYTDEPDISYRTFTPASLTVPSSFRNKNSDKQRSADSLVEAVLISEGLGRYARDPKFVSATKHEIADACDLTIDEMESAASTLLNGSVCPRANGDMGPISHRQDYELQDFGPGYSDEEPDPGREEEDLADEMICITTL
UniProt P15431, sequence (whole entry, unmodified, looked up): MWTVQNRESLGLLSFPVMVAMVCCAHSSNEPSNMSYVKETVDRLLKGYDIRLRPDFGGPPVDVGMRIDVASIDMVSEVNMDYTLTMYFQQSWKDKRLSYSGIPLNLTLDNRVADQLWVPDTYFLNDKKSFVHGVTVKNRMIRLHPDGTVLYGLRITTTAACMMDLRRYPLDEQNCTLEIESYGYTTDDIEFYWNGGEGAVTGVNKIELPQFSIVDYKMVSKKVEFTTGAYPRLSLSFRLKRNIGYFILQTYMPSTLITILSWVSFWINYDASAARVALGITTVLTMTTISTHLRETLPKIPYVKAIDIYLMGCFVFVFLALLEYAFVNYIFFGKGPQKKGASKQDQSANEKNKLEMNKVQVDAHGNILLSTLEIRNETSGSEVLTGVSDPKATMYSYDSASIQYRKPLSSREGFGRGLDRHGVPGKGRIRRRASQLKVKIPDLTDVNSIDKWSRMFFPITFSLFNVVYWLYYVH
UniProt P18508, sequence (whole entry, unmodified, looked up): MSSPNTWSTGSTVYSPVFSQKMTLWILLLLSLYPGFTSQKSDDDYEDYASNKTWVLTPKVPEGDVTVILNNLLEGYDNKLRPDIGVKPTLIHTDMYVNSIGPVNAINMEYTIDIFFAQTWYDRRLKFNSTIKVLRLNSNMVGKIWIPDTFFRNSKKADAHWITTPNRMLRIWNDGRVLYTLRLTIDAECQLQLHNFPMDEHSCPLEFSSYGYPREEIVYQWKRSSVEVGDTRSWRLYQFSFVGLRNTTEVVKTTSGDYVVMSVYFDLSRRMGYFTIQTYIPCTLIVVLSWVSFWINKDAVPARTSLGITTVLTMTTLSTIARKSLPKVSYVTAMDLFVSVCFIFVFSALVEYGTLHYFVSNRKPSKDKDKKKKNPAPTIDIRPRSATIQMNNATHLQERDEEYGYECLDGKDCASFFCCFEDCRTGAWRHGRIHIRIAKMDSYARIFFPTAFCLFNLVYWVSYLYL
UniProt P22303, sequence (whole entry, looked up): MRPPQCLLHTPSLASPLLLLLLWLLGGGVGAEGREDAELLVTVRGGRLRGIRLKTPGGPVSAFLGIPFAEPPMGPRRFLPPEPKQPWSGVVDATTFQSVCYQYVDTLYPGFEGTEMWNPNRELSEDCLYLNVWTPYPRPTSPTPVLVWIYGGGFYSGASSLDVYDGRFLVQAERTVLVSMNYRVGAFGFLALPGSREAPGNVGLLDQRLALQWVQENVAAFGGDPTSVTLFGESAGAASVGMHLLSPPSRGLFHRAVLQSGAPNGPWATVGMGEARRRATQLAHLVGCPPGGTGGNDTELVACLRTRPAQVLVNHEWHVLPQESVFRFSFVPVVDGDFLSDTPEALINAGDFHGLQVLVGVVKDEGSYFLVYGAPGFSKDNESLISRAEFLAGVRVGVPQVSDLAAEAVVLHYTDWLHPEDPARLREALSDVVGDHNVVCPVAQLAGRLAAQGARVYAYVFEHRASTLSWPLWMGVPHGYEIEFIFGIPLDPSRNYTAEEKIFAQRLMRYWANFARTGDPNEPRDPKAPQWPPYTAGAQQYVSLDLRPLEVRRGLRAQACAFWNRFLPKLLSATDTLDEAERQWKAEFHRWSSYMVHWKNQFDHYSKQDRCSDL
UniProt P33533, sequence (whole entry, looked up): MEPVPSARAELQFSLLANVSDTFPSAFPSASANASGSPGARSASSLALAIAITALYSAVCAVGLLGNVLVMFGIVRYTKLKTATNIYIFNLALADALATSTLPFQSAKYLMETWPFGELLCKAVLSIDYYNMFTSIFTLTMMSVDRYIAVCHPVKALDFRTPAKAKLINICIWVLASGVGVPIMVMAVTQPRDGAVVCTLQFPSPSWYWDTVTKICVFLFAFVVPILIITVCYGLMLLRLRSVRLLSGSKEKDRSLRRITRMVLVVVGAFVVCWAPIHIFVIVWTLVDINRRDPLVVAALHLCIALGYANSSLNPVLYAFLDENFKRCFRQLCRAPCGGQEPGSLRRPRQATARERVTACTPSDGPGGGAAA
UniProt P62813, sequence (whole entry, unmodified, looked up): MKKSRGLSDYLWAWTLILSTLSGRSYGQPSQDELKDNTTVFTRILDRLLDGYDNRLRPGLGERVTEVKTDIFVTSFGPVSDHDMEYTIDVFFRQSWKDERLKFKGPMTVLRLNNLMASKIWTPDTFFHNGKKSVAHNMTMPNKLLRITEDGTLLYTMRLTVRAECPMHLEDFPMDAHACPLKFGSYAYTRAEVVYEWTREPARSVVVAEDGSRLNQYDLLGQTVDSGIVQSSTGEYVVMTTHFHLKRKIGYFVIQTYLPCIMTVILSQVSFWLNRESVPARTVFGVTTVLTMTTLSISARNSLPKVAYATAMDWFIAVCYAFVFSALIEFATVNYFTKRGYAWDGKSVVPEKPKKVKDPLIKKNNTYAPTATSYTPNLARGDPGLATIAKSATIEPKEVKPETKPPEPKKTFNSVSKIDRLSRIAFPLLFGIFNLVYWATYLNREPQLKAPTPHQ

C=CCN(CC=C)CCc1c[nH]c2ccc(F)cc12
Ki (Tspo (Rattus norvegicus, UniProt P16257)): > 10 µM

Cc1cc(O)cc(C)c1C[C@H](N)C(=O)N[C@@H]1CCNc2ccc(Cc3cccc4ccccc34)cc21
stimulation (Oprd1 (Rattus norvegicus, UniProt P33533); agonist; 10 µM; relative to: DPDPE): 15%

COC1=CC(=O)O[C@@H](/C=C/c2ccccc2)C1
effective concentration (NF-κB; reporter gene and DNA binding, inhibitor; with: TNFα): 870 µM

LGGAKQAGDV
fold loss of potency (integrin αIIbβ3, human; PAC-1 binding inhibition; peptide; relative to: PAC-1 over fibrinogen binding inhibition): 2.5 fold

O=[P@]1(S)OC[C@H]2O[C@@H](n3cnc4cc(Cl)c(Cl)cc43)[C@H](O)[C@@H]2O1
Km or Ki (PDE2A; cyclic nucleotide hydrolysis, substrate or inhibitor, isothermal titration calorimetry): 17.7 µM

CCCCC/C=C\C/C=C\C/C=C\C/C=C\CCCC(=O)NCCO
binding affinity change (CNR2; concentration not given, F197V mutant; relative to: wild type): no effect

CC(C)(C)OC(=O)c1cc2c(cn1)[nH]c1ccccc12
efficacy (human GABAA α3β3γ2 receptor; modulator, two-electrode voltage clamp; Xenopus oocytes; saturating, with: GABA EC50; relative to: GABA response): 108 ± 6%

O=c1c2nc(Br)n([C@@H]3O[C@@H]4CO[P@@](O)(=S)O[C@H]4[C@H]3O)c2nc2[nH]c(-c3ccccc3)cn12
Km or Ki (PDE5; cyclic nucleotide hydrolysis, substrate or inhibitor, isothermal titration calorimetry): 4.09 µM

tetrahydrofolate
Km (serine hydroxymethyltransferase, Leishmania donovani; substrate): 2400 µM

COc1ccccc1N1CCN(CCN(C(=O)C2CCC(CF)CC2)c2ccccn2)CC1 (centres unmarked)
hippocampus to cerebellum PET ratio (5-HT1A receptor, rhesus monkey; rhesus monkey; 90 min): 10

O=S(=O)(O)c1cc[c]([Hg][Cl])cc1
GABA-induced current change (Gabrb1/Gabrg2/Gabra1 (Rattus norvegicus, UniProt P15431+P18508+P62813, S325C); 5 nM to 1 µM, with: allopregnanolone): no effect

O=C1CC(=O)N(C2CCCC2)C(=O)N1CCc1cccc(Cl)c1
selectivity ratio (Voltage-dependent L-type calcium channel subunit alpha-1D (Rattus norvegicus, UniProt P27732); relative to: IC50 CaV1.2 over IC50 CaV1.3): > 100

Nc1ncnc2c1nc(Br)n2C1OC2COP(O)(=S)OC2C1O (centres unmarked)
Km or Ki (PDE6; cyclic nucleotide hydrolysis, substrate or inhibitor, isothermal titration calorimetry): 106 µM

C=C1CC[C@@H]2[C@@H](C1)c1c(OC)cc(C(C)(C)CCCCCC)cc1OC2(C)C
selectivity ratio (CNR2; binding affinity; relative to: CB1 over CB2): > 406

COC1C2OP(O)(=S)OCC2OC1n1c(Sc2ccc(Cl)cc2)nc2c(N)ncnc21 (centres unmarked)
Km or Ki (PDE1B; cyclic nucleotide hydrolysis, substrate or inhibitor, isothermal titration calorimetry): 2.02 µM

C=CCN(CC=C)CCc1c[nH]c2ccccc12
Ki (ADRA2A (Homo sapiens, UniProt P08913); binding; cloned human receptor; with: [3H]rauwolscine): 0.124 µM

Cc1cccc(C(=O)C(F)(F)F)c1
binding free energy (ACHE (Homo sapiens, UniProt P22303)): -11.8 kcal/mol

A few entries again:
tetrahydrofolate
Km (serine hydroxymethyltransferase, Leishmania donovani; substrate): 2400 µM

C=C1CC[C@@H]2[C@@H](C1)c1c(OC)cc(C(C)(C)CCCCCC)cc1OC2(C)C
selectivity ratio (CNR2; binding affinity; relative to: CB1 over CB2): > 406
